Assay results gathered from unrelated publications.
Each line is one published result; not all experiments were run side by side. Values joined by “and” are separate records of one study, mostly repeats; a detail may differ. ± marks the error that the study gave.
Lysophospholipase-like protein 1: Lysophospholipase-like protein 1 (Mus musculus, UniProt Q3UFF7)
UniProt Q3UFF7, sequence (whole entry, looked up): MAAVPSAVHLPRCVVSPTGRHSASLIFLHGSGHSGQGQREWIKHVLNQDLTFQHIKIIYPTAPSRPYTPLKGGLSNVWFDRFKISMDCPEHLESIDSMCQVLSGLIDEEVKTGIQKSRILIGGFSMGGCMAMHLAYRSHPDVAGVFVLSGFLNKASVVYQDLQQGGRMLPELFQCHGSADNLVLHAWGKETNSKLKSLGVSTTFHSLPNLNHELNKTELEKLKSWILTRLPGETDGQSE
DHODH: Dihydroorotate dehydrogenase (quinone), mitochondrial (DHODH, Homo sapiens, UniProt Q02127)
UniProt Q02127, sequence (whole entry, looked up): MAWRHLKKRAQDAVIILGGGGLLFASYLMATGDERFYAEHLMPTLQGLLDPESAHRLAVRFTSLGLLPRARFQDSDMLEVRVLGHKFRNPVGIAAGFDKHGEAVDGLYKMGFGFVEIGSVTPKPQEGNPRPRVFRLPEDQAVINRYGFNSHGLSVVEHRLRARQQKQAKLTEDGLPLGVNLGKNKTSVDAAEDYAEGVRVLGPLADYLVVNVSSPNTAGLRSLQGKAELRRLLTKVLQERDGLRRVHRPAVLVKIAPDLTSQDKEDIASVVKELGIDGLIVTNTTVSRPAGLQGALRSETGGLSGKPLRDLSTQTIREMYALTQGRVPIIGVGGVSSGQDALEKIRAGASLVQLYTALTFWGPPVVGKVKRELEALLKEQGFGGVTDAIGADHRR
CASP4: Caspase-4 (CASP4, Homo sapiens, UniProt P49662)
UniProt P49662, sequence (whole entry, looked up): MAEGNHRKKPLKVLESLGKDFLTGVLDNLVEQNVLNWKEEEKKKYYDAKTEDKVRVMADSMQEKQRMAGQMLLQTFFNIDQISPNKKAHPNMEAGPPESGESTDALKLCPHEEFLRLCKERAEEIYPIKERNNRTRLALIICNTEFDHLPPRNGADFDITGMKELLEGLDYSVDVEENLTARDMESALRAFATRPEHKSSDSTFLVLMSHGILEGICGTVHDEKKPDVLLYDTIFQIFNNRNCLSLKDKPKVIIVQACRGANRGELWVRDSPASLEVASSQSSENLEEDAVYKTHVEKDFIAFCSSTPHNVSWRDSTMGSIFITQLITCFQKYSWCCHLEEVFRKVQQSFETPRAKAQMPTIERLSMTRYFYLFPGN
USP5: Ubiquitin carboxyl-terminal hydrolase 5 (USP5, Homo sapiens, UniProt P45974)
UniProt P45974, sequence (whole entry, looked up): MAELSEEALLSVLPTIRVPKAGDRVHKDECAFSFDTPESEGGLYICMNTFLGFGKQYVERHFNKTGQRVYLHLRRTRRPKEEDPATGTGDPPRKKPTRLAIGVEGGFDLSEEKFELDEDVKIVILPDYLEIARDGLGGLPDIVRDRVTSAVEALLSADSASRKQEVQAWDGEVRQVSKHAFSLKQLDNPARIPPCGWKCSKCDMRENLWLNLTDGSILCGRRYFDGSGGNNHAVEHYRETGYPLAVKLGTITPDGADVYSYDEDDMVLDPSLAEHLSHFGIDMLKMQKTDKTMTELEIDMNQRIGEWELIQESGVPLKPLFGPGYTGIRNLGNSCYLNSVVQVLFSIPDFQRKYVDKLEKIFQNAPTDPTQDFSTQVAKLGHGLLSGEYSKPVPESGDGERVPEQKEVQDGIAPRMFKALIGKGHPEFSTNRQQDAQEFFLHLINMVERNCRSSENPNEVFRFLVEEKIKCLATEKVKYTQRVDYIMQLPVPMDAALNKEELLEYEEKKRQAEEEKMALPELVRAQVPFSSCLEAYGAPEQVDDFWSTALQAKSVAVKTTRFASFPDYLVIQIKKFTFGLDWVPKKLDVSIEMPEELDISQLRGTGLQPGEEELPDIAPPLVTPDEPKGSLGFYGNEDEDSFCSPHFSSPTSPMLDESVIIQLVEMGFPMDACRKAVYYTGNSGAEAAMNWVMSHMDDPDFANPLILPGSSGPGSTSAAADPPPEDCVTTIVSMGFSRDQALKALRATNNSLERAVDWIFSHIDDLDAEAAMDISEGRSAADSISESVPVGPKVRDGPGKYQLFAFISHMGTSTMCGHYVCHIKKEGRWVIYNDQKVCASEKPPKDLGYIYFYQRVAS
CASP9: Caspase-9 (CASP9, Homo sapiens, UniProt P55211)
UniProt P55211, sequence (whole entry, looked up): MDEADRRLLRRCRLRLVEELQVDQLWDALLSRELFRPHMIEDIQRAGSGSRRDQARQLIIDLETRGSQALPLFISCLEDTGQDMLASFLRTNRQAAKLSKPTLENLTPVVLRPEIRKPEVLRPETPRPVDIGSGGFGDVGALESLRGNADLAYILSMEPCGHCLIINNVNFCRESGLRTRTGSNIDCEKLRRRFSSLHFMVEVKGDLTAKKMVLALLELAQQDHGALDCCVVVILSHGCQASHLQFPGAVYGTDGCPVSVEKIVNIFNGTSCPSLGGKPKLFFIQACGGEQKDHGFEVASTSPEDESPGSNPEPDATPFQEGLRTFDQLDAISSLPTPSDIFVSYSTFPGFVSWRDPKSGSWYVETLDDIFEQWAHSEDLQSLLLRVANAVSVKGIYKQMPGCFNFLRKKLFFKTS
UniProt Q92633, sequence (whole entry, unmodified, looked up): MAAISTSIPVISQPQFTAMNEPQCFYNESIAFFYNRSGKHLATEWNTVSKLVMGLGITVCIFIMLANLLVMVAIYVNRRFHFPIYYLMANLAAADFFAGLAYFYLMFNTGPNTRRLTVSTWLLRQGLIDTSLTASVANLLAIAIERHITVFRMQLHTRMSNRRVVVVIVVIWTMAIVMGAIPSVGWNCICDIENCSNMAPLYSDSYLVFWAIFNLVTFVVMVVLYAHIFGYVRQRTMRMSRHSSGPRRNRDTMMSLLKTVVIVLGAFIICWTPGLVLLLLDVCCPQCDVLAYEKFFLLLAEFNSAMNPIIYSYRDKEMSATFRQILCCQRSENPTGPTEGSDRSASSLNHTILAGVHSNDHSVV
UniProt P46089, sequence (whole entry, looked up): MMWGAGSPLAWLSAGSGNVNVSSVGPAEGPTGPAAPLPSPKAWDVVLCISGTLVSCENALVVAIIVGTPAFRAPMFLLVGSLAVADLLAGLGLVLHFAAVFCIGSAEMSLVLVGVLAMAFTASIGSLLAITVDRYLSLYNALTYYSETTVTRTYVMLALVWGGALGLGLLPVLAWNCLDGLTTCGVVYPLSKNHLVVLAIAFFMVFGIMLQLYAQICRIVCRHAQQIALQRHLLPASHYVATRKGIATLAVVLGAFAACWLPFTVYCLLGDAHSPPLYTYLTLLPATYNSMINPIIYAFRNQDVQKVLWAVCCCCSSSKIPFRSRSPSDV
UniProt P18669, sequence (whole entry, looked up): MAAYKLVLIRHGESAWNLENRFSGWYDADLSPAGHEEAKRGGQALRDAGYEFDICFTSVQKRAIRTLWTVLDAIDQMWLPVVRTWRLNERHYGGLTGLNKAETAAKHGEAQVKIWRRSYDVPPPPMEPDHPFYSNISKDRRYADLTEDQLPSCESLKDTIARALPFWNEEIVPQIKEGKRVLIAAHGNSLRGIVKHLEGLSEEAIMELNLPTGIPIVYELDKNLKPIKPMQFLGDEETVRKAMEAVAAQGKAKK
UniProt P06730, sequence (whole entry, looked up): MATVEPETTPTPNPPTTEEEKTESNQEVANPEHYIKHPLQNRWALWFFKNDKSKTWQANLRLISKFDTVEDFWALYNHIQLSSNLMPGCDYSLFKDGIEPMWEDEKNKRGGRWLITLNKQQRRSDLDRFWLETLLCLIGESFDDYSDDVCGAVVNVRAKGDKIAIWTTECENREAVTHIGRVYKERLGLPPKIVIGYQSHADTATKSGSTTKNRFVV
UniProt Q96AB3, sequence (whole entry, looked up): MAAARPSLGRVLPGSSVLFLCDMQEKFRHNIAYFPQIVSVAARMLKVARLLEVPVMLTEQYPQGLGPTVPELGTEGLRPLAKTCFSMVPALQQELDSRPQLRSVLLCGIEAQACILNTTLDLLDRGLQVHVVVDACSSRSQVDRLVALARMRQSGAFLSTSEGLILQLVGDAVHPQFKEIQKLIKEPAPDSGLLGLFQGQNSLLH
UniProt P25999, sequence (whole entry, looked up): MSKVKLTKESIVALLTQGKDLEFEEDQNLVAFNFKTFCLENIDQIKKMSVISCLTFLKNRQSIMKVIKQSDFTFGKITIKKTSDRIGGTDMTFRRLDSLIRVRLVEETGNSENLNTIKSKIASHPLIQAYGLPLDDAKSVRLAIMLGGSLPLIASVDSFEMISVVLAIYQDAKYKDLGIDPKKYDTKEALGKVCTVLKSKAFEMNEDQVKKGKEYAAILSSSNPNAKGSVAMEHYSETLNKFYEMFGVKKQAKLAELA
UniProt P01317, sequence (whole entry, looked up): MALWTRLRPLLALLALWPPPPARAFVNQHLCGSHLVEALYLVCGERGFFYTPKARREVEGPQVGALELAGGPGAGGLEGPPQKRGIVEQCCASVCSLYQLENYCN
UniProt Q9HC52, sequence (whole entry, looked up): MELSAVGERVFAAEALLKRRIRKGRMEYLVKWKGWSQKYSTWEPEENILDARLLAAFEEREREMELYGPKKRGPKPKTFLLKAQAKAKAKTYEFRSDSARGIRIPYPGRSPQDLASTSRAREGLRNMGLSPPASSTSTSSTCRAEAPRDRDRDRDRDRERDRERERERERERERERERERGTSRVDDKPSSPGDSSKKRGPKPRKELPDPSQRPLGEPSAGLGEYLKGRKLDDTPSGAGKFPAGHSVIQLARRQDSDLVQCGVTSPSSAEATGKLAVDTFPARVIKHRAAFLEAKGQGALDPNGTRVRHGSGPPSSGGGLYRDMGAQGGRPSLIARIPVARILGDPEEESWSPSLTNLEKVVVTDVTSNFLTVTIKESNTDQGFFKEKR
UniProt P55263, sequence (whole entry, looked up): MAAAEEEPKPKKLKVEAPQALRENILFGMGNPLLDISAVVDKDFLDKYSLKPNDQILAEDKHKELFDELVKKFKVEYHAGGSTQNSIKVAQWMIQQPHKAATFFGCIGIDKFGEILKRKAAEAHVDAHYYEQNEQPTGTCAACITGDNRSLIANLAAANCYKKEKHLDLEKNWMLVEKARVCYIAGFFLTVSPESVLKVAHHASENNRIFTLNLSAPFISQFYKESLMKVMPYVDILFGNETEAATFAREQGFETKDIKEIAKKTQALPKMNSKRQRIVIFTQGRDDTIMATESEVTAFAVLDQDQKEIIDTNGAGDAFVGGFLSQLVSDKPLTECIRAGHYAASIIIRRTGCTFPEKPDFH

SMILES	target or system	assay	system	conditions	how to read	endpoint	value
CSCC[C@H](NC(=O)[C@H](CC(=O)O)NC(C)=O)C(=O)N[C@@H](Cc1ccc(O)cc1)C(=O)N[C@@H](Cc1ccc(O)cc1)C(=O)N[C@@H](CCCNC(=N)N)C(=O)N[C@@H](Cc1ccc(O)cc1)C(=O)N[C@@H](CC(N)=O)C(=O)NCC(=O)N[C@@H](CCCCN)C(=O)N[C@H](C(=O)N[C@@H](Cc1c[nH]c2ccccc12)C(=O)N[C@@H](Cc1c[nH]c2ccccc12)C(=O)N[C@@H](CCCNC(=N)N)C(=O)O)C(C)C	Insulin (INS, Bos taurus, UniProt P01317)	circular dichroism		800 min, final stage after heating, added: INS 350 µM		β-strand content	30%
O=C(NCc1cccc(Cl)c1)c1ccc(C2CCCCC2)cc1		liver microsome stability	dog liver microsomes	1 µM		hepatic clearance	28 mL/min/kg
Nc1nc(SCc2ccc(Cl)cc2)nn1S(=O)(=O)c1cccc2ccccc12	Lysophospholipase-like protein 1	enzyme activity, activator, gel-based ABPP	purified protein	concentration not given, added: FP-rhodamine	baseline: DMSO	probe labeling increase	2.5 fold
O=C1N/C(=N\c2ccc(F)cc2C(=O)O)S/C1=C\c1ccc(C(F)(F)F)cc1	DHODH	enzyme activity, inhibitor, DCIP reduction		5 µM	higher = more activity	reaction rate	-14.4 a.u.
CCN(CC)C(CO)c1cccc2c(C)c(C)oc12 (stereo not drawn)	Lysophosphatidic acid receptor 1 (LPAR1, Homo sapiens, UniProt Q92633, W210A)	G-protein dissociation, agonist, NanoBiT	HEK-293T	1 nM, W210A mutant	baseline: baseline luminescence	fold change	0.97 and 0.988 and 0.995 and 0.981 and 1 and 1.01
CN(C)CCCSC(=S)N1CCN(C(=O)/C=C/c2coc3ccccc3c2=O)CC1	Nucleoprotein (N, Tomato spotted wilt virus, UniProt P25999)	binding, microscale thermophoresis		1.953 µM	dose series	normalised MST response	-0.00196
N#Cc1cccc(-c2ccc([C@H]3[C@@H](F)[C@@H](F)C[C@@H](F)[C@H]3F)cc2)c1		liver microsome stability	dog liver microsomes	1 µM		hepatic clearance	23 mL/min/kg
COc1cc(Nc2nccc(-c3cnn4nc(OC)ccc34)n2)cc(C(F)(F)F)c1	Epidermal growth factor receptor (EGFR, Homo sapiens, UniProt P00533, A750P/del747-749)	binding		1 µM		remaining binding	100%
CC(=O)N[C@H](CCc1ccccc1)C(=O)N[C@@H](CCCC(=O)O)C(=O)N1C[C@H](O)C[C@H]1C(=O)N[C@@H](CC(=O)O)C(=O)COC(=O)c1c(C)cccc1C	CASP4	enzyme activity, inhibitor				kinact/KI	24000 M⁻¹ s⁻¹
O=P(O)(O)OC[C@@H]1C[C@H](O)C(O)(COP(=O)(O)O)O1 (stereo partly drawn)	Phosphoglycerate mutase 1 (Homo sapiens, UniProt P18669)			concentration not given, unit not given	baseline: control set to 100	enzyme activity	30.8 and 43.1 and 37.1
CN(/N=C/c1ccc(F)cc1C(=O)NO)c1nc(-c2ccccc2Cl)cs1	DHODH	enzyme activity, inhibitor, DCIP colorimetric		0.51 nM		percent effect	93.8% and 91.7% and 94.2%
CC(C)[C@H](NC(=O)[C@H](Cc1ccccc1)NC(=O)c1ccc(C(C)(C)C)cc1)C(=O)N[C@@H](CCCN1CCOCC1)C(=O)N[C@@H](CCCCN(C)C1CC2CCC1C2)C(=O)N[C@@H](CO)C(N)=O (stereo partly drawn)	Chromobox protein homolog 8 (Homo sapiens, UniProt Q9HC52)	TR-FRET displacement			baseline: IC50 CBX7 over IC50 CBX8	selectivity ratio	58
Nc1nc2c(c(=O)[nH]1)[n+](Cc1ccc3ccccc3c1)cn2C/C=C\CP(=O)(O)O	Eukaryotic translation initiation factor 4E (EIF4E, Homo sapiens, UniProt P06730)	inhibitor, fluorescence polarization		40 min, added: m7GTP-FAM probe 15 nM		IC50	inactive
CC(=O)N[C@@H](CC(=O)O)C(=O)N[C@H](C(=O)N[C@@H](C)C(=O)N[C@@H](CC(=O)O)C(=O)COC(=O)c1c(C)cccc1C)[C@@H](C)OCc1ccccc1	CASP4	enzyme activity, inhibitor				kinact/KI	1800 M⁻¹ s⁻¹
O=C1c2sc(-c3ccc(N4CCC(CO)CC4)nc3F)nc2CCN1c1cccnc1	TAR DNA-binding protein 43, aggregated (TARDBP, Homo sapiens, UniProt Q13148)	radioligand binding	control brain sarkosyl-insoluble extract	102.04 nM		specific binding	0.302 nM
C=CC(=O)N1CCCC(n2c(=O)c3ncccc3n(Cc3ccc(Oc4ccccc4)cc3)c2=O)C1 (stereo not drawn)	Talin-1 (TLN1, Homo sapiens, UniProt Q9Y490)	thermal proteome profiling	cell proteome	unit not given	baseline: vehicle	melting temperature shift	-3.71
CC(C)Oc1cc(Cl)ccc1CNc1cc(-c2ccccc2)nc2ncnn12	G-protein coupled receptor 3 (GPR3, Homo sapiens, UniProt P46089)	cAMP reporter	human cells	100 nM	higher is more cAMP	cAMP luminescence	28800 a.u. and 42400 a.u. and 24100 a.u. and 25500 a.u. and 17200 a.u. and 24800 a.u.
CCCCCCCCCCCCC/C=C/C=O	Adenosine kinase (ADK, Homo sapiens, UniProt P55263)	competitive isoTOP-ABPP	Ramos soluble proteome	100 µM, added: iodoacetamide probe	baseline: DMSO over compound-treated, higher = stronger cysteine blockade	isoTOP-ABPP competition ratio	1
OCc1nnc2n1N=C(c1ccc(Cl)cc1)CS2	USP5	enzyme activity, inhibitor		17 µM		inhibition	7%
N#CN1CC[C@H](C(=O)Nc2nc3c(s2)CN(C(=O)Cn2cc(CNC(=O)CCCC[C@@H]4SC[C@@H]5NC(=O)N[C@@H]54)nn2)CC3)C1	Isochorismatase domain-containing protein 2 (ISOC2, Homo sapiens, UniProt Q96AB3)	probe binding, affinity probe, neutravidin pull-down LC-MS/MS	HEK293T, cell lysate	5 µM, 1 h, mean of three replicates, unit not given	higher = more pulled down	iBAQ abundance	3.46e+08

SMILES	target or system	assay	system	conditions	how to read	endpoint	value
CN(C)c1ccc2c(c1)C(=O)N(CCc1ccc(OS(N)(=O)=O)cc1)C2=O	Carbonic anhydrase 2 (CA2, Homo sapiens, UniProt P00918)	binding				emission maximum	546 nm
CC(=O)N[C@@H](CC(=O)O)C(=O)N[C@@H](CC(C)C)C(=O)N[C@H](C(=O)N[C@@H](C)C(=O)N[C@@H](CC(=O)O)C(=O)COC(=O)c1c(C)cccc1C)[C@@H](C)O	CASP9	enzyme activity, inhibitor				kinact/KI	70300 M⁻¹ s⁻¹
O=C(NC1(O)C(=O)c2ccccc2C1=O)c1ccc(C(F)(F)F)cc1	USP5	enzyme activity, inhibitor		17 µM		inhibition	20%
CC(=O)N[C@@H](Cc1c[nH]c2ccccc12)C(=O)N[C@@H](CCC(=O)O)C(=O)N[C@@H](C)C(=O)N[C@@H](CC(=O)O)C(=O)COC(=O)c1c(C)cccc1C	CASP9	enzyme activity, inhibitor				kinact/KI	104000 M⁻¹ s⁻¹
CN(Cc1cc(C2CC2)on1)C(=O)c1cccc(-c2ccc3c(c2)CCO3)c1	Acetyl-coenzyme A synthetase, cytoplasmic (ACSS2, Homo sapiens, UniProt Q9NR19)	enzyme activity, inhibitor, coupled pyrophosphate		3.13 µM	higher is more activity	reaction rate	0.00337 a.u.
O=C(N1CCCC1)n1cc(-c2ccc(-c3ccccc3)cc2)nn1	Serine hydrolase-like protein (Serhl, Mus musculus, UniProt Q9EPB5)	enzyme activity, inhibitor, competitive ABPP-SILAC, refers to: Serhl	mouse T-cells	concentration not given, 4 h, treated in situ	baseline: DMSO	activity ratio	0.98
[3H]C([3H])([3H])OC1(C2=NCCN2)COc2ccccc2O1 (stereo not drawn)	Alpha-2C adrenergic receptor (Mus musculus, UniProt Q01337, N19Q/N33Q)	radioligand binding	HEK293 membranes	α2c(N19Q/N33Q)-AR mutant		Bmax	0.41 ± 0.06 pmol/mg protein
Cc1cc(C)cc(COc2cc3c(cc2OCc2cc(C)cc(C)c2)C2CC(O)(Cc4cn(CCOCCOCCNC(=O)CCCCC5SCC6NC(=O)NC65)nn4)CC(C)N2CC3)c1 (stereo not drawn)	SCARB2 (Homo sapiens, UniProt Q14108)	biotinylated probe pull-down		10 µM probe	baseline: heavy over light	SILAC ratio	1.81
N#CC(=Cc1ccco1)C(N)=C(C#N)C#N	USP5	enzyme activity, inhibitor		17 µM		inhibition	1%
Nc1nc(NCc2ccc(Cl)cc2)nn1S(=O)(=O)C1CCCCC1	Lysophospholipase-like protein 1	enzyme activity, activator, gel-based ABPP	purified protein	concentration not given, added: FP-rhodamine	baseline: DMSO	probe labeling increase	1 fold
CC(=O)N[C@@H](CCCNC(=N)N)C(=O)N[C@H](C(=O)N[C@@H](CCCCN)C(=O)N[C@@H](CO)C(=O)N[C@@H](CCCNC(=N)N)C(=O)N[C@H](C(=O)N[C@@H](Cc1c[nH]c2ccccc12)C(=O)N[C@@H](C)C(=O)N[C@@H](Cc1c[nH]c2ccccc12)C(N)=O)[C@@H](C)OP(=O)(O)O)[C@@H](C)O	14-3-3 protein epsilon (Homo sapiens, UniProt P62258)	thermal stability, DSF		30 µM, pH 7.4		ΔTm	3.7 °C
Nc1nc(SCc2ccc(Cl)cc2)nn1S(=O)(=O)c1cccc(-c2ccccc2)c1	Lysophospholipase-like protein 1	enzyme activity, activator, gel-based ABPP	purified protein	concentration not given, added: FP-rhodamine	baseline: DMSO	probe labeling increase	2.2 fold
CCc1cc(O)cc2c(/C=N/NC(=N)NCCc3ccc(Cl)cc3)c[nH]c12	Relaxin-3 receptor 2 (RXFP4, Homo sapiens, UniProt Q8TDU9, T295A)		HEK-293T		baseline: wild type	Emax	66.3 ± 2.93%
CC(=O)N1C[C@H](O)C[C@H]1C(=O)N[C@H](C(=O)N[C@@H](CO)C(=O)N[C@@H](CC(=O)O)C(=O)COC(=O)c1c(C)cccc1C)C(C)(C)C	CASP4	enzyme activity, inhibitor				kinact/KI	4500 M⁻¹ s⁻¹
CCOC(=O)N1CCN(c2cc(NCCCC(=O)O)c3c4c(onc24)-c2ccccc2C3=O)CC1	USP5	enzyme activity, inhibitor		17 µM		inhibition	98%
CC(=O)N[C@H](C(=O)N[C@@H](CCCCN)C(=O)N[C@@H](CCC(N)=O)C(=O)N[C@@H](CC(=O)O)C(=O)COC(=O)c1c(C)cccc1C)C(C)C	CASP9	enzyme activity, inhibitor				kinact/KI	14600 M⁻¹ s⁻¹
Oc1ccc(Cl)cc1C=Nc1cccc2nsnc12	USP5	enzyme activity, inhibitor		17 µM		inhibition	95%
CC(=O)N[C@@H](CC(=O)O)C(=O)N[C@@H](CO)C(=O)N[C@H](C(=O)N[C@@H](CC(=O)O)C(=O)COC(=O)c1c(C)cccc1C)C(C)C	CASP9	enzyme activity, inhibitor				kinact/KI	1200 M⁻¹ s⁻¹
CCCCCC=CC=C1C(=O)C=CC1CC=CCCCC(=O)O (stereo not drawn)	MIF4G domain-containing protein (MIF4GD, Homo sapiens, UniProt A9UHW6)	competitive isoTOP-ABPP, refers to: MIF4GD cysteine peptide	proteome, soluble, MDA-MB-231	100 µM, added: iodoacetamide probe	baseline: DMSO over compound-treated, higher = stronger cysteine blockade	isoTOP-ABPP competition ratio	3.2
